Results pooled from the literature.
Compare with care: the assays were run in different laboratories. “And” joins repeats or separate records; there may be more than shown. ± gives the spread as reported.
HDAC11: Histone deacetylase 11 (HDAC11, Homo sapiens, UniProt Q96DB2)
Chain of UniProt Q96DB2 (whole entry, looked up): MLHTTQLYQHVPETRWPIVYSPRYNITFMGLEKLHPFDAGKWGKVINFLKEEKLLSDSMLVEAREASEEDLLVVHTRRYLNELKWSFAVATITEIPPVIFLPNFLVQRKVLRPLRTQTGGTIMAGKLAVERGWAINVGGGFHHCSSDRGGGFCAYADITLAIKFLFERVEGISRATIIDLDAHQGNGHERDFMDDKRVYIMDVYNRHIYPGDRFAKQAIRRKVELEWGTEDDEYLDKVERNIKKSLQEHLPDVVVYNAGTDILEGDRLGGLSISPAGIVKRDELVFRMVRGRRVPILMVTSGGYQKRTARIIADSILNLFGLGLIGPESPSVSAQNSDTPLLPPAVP
DRD4: D(4) dopamine receptor (DRD4, Homo sapiens, UniProt P21917)
Chain of UniProt P21917 (whole entry, looked up): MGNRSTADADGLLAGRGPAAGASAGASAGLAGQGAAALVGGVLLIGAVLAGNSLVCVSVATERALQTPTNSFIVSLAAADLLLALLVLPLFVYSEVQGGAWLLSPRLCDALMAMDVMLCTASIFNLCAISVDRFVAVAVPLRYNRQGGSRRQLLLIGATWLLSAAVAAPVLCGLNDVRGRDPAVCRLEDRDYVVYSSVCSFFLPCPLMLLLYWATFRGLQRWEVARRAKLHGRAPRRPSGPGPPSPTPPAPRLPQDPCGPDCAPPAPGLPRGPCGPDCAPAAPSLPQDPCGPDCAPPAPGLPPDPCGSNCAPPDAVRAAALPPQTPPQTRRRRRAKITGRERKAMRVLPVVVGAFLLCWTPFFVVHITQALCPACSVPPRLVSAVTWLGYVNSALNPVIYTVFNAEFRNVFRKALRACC
PLAU: Urokinase-type plasminogen activator (PLAU, Homo sapiens, UniProt P00749)
Chain of UniProt P52790 (whole entry, unmodified, looked up): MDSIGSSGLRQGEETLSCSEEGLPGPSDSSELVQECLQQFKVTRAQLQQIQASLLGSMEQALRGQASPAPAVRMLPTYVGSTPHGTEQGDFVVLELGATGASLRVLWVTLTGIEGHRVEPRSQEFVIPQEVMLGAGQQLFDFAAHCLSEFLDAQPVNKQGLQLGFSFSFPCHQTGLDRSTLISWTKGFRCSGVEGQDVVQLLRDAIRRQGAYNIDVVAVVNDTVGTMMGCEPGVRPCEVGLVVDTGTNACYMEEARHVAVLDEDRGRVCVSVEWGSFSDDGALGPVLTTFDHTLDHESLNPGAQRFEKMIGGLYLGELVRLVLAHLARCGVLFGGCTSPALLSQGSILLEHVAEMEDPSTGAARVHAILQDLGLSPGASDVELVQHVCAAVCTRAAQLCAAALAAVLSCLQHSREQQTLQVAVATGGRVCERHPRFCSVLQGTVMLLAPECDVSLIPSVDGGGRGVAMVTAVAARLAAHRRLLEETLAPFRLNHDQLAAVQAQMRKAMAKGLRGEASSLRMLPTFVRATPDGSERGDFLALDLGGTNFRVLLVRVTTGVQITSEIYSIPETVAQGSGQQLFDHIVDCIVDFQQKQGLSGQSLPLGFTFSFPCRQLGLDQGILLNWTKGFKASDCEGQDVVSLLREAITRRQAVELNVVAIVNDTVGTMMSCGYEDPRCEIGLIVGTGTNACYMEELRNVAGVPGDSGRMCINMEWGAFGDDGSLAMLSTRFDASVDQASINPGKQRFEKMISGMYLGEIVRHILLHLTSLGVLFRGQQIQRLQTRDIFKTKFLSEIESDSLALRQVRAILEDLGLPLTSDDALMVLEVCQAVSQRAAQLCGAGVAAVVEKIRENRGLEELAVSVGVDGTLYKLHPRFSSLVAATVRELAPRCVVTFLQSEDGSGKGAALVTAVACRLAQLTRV
Chain of UniProt P30968 (whole entry, unmodified, looked up): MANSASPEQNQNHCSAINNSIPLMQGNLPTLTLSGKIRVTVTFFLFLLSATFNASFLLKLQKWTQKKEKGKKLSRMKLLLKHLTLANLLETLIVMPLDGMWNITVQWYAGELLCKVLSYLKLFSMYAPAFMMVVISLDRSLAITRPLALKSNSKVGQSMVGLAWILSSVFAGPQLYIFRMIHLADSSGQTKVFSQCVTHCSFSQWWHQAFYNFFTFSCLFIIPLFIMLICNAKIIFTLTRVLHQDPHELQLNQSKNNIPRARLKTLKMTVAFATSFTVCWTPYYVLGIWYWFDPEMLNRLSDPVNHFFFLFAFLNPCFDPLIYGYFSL
Chain of UniProt P22059 (whole entry, looked up): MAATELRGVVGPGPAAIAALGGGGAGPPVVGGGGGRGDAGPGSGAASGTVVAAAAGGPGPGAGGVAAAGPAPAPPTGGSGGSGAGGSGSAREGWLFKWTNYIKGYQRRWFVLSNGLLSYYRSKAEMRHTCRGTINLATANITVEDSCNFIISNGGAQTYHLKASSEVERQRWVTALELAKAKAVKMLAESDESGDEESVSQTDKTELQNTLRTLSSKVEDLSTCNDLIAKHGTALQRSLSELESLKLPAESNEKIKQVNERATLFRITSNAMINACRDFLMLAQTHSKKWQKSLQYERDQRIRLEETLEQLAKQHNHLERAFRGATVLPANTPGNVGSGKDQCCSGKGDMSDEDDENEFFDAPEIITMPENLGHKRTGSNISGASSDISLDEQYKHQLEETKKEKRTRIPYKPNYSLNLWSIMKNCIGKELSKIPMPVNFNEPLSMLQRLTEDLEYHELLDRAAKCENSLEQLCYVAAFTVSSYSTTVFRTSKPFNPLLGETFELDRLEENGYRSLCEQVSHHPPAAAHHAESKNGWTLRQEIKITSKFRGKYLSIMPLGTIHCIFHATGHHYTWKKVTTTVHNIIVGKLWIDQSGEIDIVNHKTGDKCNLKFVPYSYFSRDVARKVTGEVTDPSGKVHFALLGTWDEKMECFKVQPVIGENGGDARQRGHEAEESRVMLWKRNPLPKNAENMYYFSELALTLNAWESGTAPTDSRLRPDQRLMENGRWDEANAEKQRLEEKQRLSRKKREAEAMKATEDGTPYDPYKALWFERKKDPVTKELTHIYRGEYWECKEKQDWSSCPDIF
Chain of UniProt P35348 (whole entry, unmodified, looked up): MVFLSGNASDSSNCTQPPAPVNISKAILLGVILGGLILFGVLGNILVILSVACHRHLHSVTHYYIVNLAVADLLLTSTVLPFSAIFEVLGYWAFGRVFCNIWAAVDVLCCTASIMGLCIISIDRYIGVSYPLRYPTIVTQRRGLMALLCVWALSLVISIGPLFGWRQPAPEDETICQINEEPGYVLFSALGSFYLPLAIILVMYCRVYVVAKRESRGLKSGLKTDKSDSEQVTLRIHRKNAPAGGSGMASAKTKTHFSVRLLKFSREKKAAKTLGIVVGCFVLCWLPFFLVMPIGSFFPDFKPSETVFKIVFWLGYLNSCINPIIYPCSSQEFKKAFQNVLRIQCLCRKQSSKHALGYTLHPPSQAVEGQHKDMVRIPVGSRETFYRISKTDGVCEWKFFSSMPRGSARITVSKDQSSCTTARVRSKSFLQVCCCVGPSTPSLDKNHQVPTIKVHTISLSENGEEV
Chain of UniProt Q13946 (whole entry, looked up): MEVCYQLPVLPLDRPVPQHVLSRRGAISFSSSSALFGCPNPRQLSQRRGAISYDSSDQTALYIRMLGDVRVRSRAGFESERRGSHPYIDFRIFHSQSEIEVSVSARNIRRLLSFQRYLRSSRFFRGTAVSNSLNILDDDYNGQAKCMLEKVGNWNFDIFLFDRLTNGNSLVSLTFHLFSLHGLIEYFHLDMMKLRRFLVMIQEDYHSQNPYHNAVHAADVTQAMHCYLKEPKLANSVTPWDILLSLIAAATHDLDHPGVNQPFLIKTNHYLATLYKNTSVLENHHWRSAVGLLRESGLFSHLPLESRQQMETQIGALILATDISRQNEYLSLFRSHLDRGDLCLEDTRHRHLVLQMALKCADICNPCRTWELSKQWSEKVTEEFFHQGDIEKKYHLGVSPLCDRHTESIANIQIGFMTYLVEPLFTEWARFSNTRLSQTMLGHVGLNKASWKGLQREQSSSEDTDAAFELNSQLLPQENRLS
Chain of UniProt P41595 (whole entry, looked up): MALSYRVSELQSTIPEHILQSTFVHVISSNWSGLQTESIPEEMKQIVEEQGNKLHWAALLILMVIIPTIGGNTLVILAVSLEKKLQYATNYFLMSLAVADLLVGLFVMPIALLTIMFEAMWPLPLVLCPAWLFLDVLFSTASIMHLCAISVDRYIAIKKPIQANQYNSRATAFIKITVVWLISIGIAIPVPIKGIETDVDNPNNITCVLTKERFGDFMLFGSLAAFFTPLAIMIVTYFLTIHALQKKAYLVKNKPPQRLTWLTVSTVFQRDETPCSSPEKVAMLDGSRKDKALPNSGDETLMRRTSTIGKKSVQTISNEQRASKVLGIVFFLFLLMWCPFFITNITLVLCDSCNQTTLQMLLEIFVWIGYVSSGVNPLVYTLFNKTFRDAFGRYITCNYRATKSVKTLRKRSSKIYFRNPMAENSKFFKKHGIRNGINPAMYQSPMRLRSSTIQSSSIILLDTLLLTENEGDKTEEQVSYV

`Cc1c(OS(=O)(=O)Oc2cccc(C(C)(C)C)c2)cccc1C(=O)NO` has a Ki of 0.646 µM (HDAC11).
`COc1cccc(-c2c(C)n(Cc3c(F)cccc3C(F)(F)F)c(=O)n(C[C@H](NCCCC(=O)O)c3ccccc3)c2=O)c1F` has a Ki of 0.00028 ± 0.00012 µM (Gonadotropin-releasing hormone receptor (GNRHR, Homo sapiens, UniProt P30968, del191-191)).
With `OC[C@H]1N/C(=N\Cc2ccccc2)[C@H](O)[C@@H](O)[C@H]1O` the Ki was 0.108 ± 0.002 µM (β-glucosidase sweet almond; enzyme activity, inhibitor; pH 5.00).
`OC[C@H]1OC(O)[C@H](O)[C@@H](O)[C@@H]1O` (stereo partly drawn) gave a Ki of 7000 ± 1000 µM (Hexokinase-3 (HK3, Homo sapiens, UniProt P52790, R807A); substrate inhibition; mutant R807A, partial substrate inhibition model, together with: ATP 20 mM).
`OC[C@H]1N/C(=N\C2CC2)[C@H](O)[C@@H](O)[C@H]1O` gave a Ki of 0.0118 ± 0.0027 µM (β-glucosidase sweet almond; enzyme activity, inhibitor; pH 5.00).
With `O=S(=O)(O)c1cc(O)c(N=Nc2ccc3ccccc3c2O)c2ccccc12` the Ki was 6.8 ± 0.8 µM (Diphosphomevalonate decarboxylase (Staphylococcus epidermidis, UniProt Q9FD73); inhibitor; pH 7, together with: ATP (varied)).
For `Cc1cc(OS(=O)(=O)Oc2ccc(Oc3ccccc3)cc2)cc(C(=O)NO)c1`, the Ki was 1.27 µM (HDAC11).
With `Nc1ncnc2c1ncn2[C@@H]1O[C@H](C[C@@H](N)CC[C@H](N)C(=O)O)[C@@H](O)[C@H]1O` the Ki was 5.74 µM (Histone-lysine N-methyltransferase 2C (KMT2C, Homo sapiens, UniProt Q8NEZ4); methyltransferase activity, competitive inhibitor, enzyme-coupled methylation; together with: varied S-adenosylmethionine).
For `C[C@@H]1Cc2ccccc2N1C(=O)NCCCCN(C)[C@@H]1Cc2cccc3[nH]c(=O)n(c23)C1`, the Ki was 0.044 ± 0.00595 µM (DRD4; binding).
With `CCC/N=C1\N[C@H](CO)[C@H](O)[C@H](O)[C@H]1O` the Ki was 0.0187 µM and 0.0147 µM (β-glucosidase sweet almond; enzyme activity, inhibitor; pH 5.00).
`O=C(NO)c1cncc(OS(=O)(=O)Oc2ccc3ccccc3c2)c1` has a Ki of 2.99 µM (HDAC11).
With `CCCCCCC/N=C1\N[C@H](CO)[C@H](O)[C@H](O)[C@H]1O` the Ki was 0.0296 ± 0.0061 µM (β-glucosidase sweet almond; enzyme activity, inhibitor; pH 5.00).
With `COC(=O)Nc1cc(C(=O)Nc2ccccc2)cc2ccc(C(=N)N)cc12` the Ki was 0.018 µM (PLAU; inhibitor; pH 7.4).
With `O=C(NO)c1cccc(OS(=O)(=O)Oc2ccc(-c3cccc(C(F)(F)F)c3)cc2)c1` the Ki was 1.42 µM (HDAC11).
`Cc1ccc2[nH]c(=O)c(CNC3CCCCC3)cc2c1` has a Ki of 1.1 µM (Alpha-1A adrenergic receptor (ADRA1A, Homo sapiens, UniProt P35348, I178V/M292L); flow cytometry competition binding; COS-7; I178V M292L mutant).
`Cc1ccccc1C/N=C1\N[C@H](CO)[C@H](O)[C@H](O)[C@H]1O` gave a Ki of 0.0262 ± 0.0027 µM (β-glucosidase sweet almond; enzyme activity, inhibitor; pH 5.00).
`C[C@H](CCCC(C)(C)O)[C@H]1CC[C@H]2[C@@H]3CC=C4C[C@@H](O)CC[C@]4(C)[C@H]3CC[C@]12C` gave a Ki of 0.026 ± 0.007 µM (Oxysterol-binding protein 1 (OSBP, Homo sapiens, UniProt P22059)).
With `O=C(NO)c1cccc(OS(=O)(=O)Oc2ccc(Oc3ccccc3)cc2)c1` the Ki was 0.298 µM (HDAC11).
With `CC(C)C[C@H](NC(=O)[C@H](Cc1ccccc1)NC(=O)c1cnccn1)B(O)O` the Ki was 0.0031 µM (20S proteasome (Plasmodium falciparum, UniProt A0A5K1K7U1+Q8IJT1); inhibitor, progress curve; Ki as apparent Ki/2).
With `COC/C=C/c1cc(C2CC2c2ccc3c(c2)C(C(C)C)N(C)CC3)cc2ccc(C(=N)N)cc12` (stereo not drawn) the Ki was 0.021 µM (PLAU; inhibitor; pH 7.4).
The Ki of `CN(CCCCNC(=O)c1cc2ccccc2[nH]1)[C@@H]1Cc2cccc3[nH]c(=O)n(c23)C1` is reported as 0.899 ± 0.154 µM (DRD4; binding).
With `OC[C@H]1N/C(=N\CC2CC2)[C@H](O)[C@@H](O)[C@H]1O` the Ki was 0.0115 ± 0.0053 µM (β-glucosidase sweet almond; enzyme activity, inhibitor; pH 5.00).
The Ki of `C#CCN(C)C(=O)c1ccc2ccc(N)nc2c1` is reported as > 100 µM (PLAU; inhibitor; pH 7.4).
The Ki of `Cc1ccc([C@H]2C[C@@H]2COc2cc(NCc3nnc(C)s3)nc(C)n2)nc1` is reported as > 75 µM (High affinity 3',5'-cyclic-AMP phosphodiesterase 7A (PDE7A, Homo sapiens, UniProt Q13946); enzyme activity, inhibitor, IMAP fluorescence polarization; together with: cAMP substrate).
For `CN1CCc2ccc(C3CC3c3ccc4cc(C(=N)N)ccc4c3)cc2C1c1cccnc1` (stereo not drawn), the Ki was 1.25 µM (PLAU; inhibitor; pH 7.4).
For `CNC(=O)[C@@]12C[C@@H]1[C@@H](n1cnc3c(NC)nc(C#C[c-]4cccc4)nc31)[C@H](O)[C@@H]2O.[Fe+2].c1cc[cH-]c1`, the Ki was 0.318 µM (5-hydroxytryptamine receptor 2B (HTR2B, Homo sapiens, UniProt P41595); radioligand binding (PDSP)).
The Ki of `O=C(NO)c1cccc(OS(=O)(=O)Oc2ccc(C(F)(F)F)cc2)c1` is reported as 0.511 µM (HDAC11).
For `CN(CC[C@@H]1C[C@H]1CNC(=O)c1cc2ccccc2[nH]1)[C@@H]1Cc2cccc3[nH]c(=O)n(c23)C1`, the Ki was 1.32 ± 0.11 µM (DRD4; binding).
The Ki of `CS(=O)(=O)n1cc(-c2cc(C(=O)Nc3ccccc3)cc3ccc(C(=N)N)cc23)cn1` is reported as 0.769 µM (PLAU; inhibitor; pH 7.4).
For `Cc1c(OS(=O)(=O)Oc2ccccc2)cccc1C(=O)NO`, the Ki was 2.5 µM (HDAC11).
For `COc1ccc2ccc(C(=N)N)cc2c1-c1cnn(C(C)C)c1`, the Ki was 4.5 µM (PLAU; inhibitor; pH 7.4).
For `OC[C@H]1N/C(=N\Cc2ccccc2F)[C@H](O)[C@@H](O)[C@H]1O`, the Ki was 0.118 ± 0.027 µM (β-glucosidase sweet almond; enzyme activity, inhibitor; pH 5.00).
For `Nc1cc2ccccc2cn1`, the Ki was > 30 µM (PLAU; inhibitor; pH 7.4).
`OC[C@H]1N/C(=N\Cc2ccc(F)cc2)[C@H](O)[C@@H](O)[C@H]1O` gave a Ki of 0.0575 ± 0.0065 µM (β-glucosidase sweet almond; enzyme activity, inhibitor; pH 5.00).
The Ki of `CC(C)C1=NCCc2ccc(NC(=O)c3cc(Br)c4cc(C(=N)N)ccc4c3)cc21` is reported as 0.0157 µM (PLAU; inhibitor; pH 7.4).
For `O=C(NO)c1cccc(OS(=O)(=O)Oc2ccc3ccccc3c2)c1`, the Ki was 0.825 µM (HDAC11).

Some of these lines once more:
For `Cc1c(OS(=O)(=O)Oc2ccccc2)cccc1C(=O)NO`, the Ki was 2.5 µM (HDAC11).
`Cc1ccc2[nH]c(=O)c(CNC3CCCCC3)cc2c1` has a Ki of 1.1 µM (Alpha-1A adrenergic receptor (ADRA1A, Homo sapiens, UniProt P35348, I178V/M292L); flow cytometry competition binding; COS-7; I178V M292L mutant).
The Ki of `Cc1ccc([C@H]2C[C@@H]2COc2cc(NCc3nnc(C)s3)nc(C)n2)nc1` is reported as > 75 µM (High affinity 3',5'-cyclic-AMP phosphodiesterase 7A (PDE7A, Homo sapiens, UniProt Q13946); enzyme activity, inhibitor, IMAP fluorescence polarization; together with: cAMP substrate).
`Cc1ccccc1C/N=C1\N[C@H](CO)[C@H](O)[C@H](O)[C@H]1O` gave a Ki of 0.0262 ± 0.0027 µM (β-glucosidase sweet almond; enzyme activity, inhibitor; pH 5.00).
